# Measured values from different studies.
# Each numbered part is a random draw from the data of one study; scales do not carry over between parts. Positions count from the first letter of the parent shown.

# Block 1
# Target: Centromere-binding protein 1, full length, N-terminal tag (CBF1, Saccharomyces cerevisiae, UniProt P17106, residues 1-351)
# Chain of UniProt P17106 (whole entry, looked up): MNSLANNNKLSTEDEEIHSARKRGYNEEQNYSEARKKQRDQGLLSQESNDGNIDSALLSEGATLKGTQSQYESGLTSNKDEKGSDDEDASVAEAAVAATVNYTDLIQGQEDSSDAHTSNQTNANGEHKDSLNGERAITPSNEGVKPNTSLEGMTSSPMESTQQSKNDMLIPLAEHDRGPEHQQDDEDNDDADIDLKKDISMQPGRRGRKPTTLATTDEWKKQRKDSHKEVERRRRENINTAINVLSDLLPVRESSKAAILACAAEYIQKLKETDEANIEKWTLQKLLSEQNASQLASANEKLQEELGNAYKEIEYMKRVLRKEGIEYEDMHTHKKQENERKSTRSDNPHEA
# Technique: protein-binding microarray
# Form: double-stranded DNA, one strand shown
# Matrix: in vitro
# Concentration: 0.8 µM
# Setting: whole 60-bp probe, no competitor
# Direction: higher = stronger binding
# Shared flanks, not repeated: … GTCTTGATTCGCTTGACGCTGCTG
Sequence,fluorescence intensity [a.u.]
CTATCTTTTCCACACCACCTTCAAATTTAAGAATTC,701
CCTAACTACTATAGTGGTGATCCATAGCTTCGTACA,546
GAAAAAATGCGGCTGCACGTTGCTTATTACGTGTAG,602
CTATGGTACTACTGTCCTGATGTAGGCTCCTTATTC,508
GAATTCTCTTGAGGTCACATGATCGCAAAATGGTAG,15100
CTAAGAATAATACGGCACGTTAAATGTTATTTTTTC,563
GAACTCCCATTAAATCTGATGACTGTTTCTCATTAG,567
GAATCTATATCGGGAAACGTGATTGATTGCGCATAG,1600

# Block 2
# Target: Cyclic AMP-responsive element-binding protein 1 (CREB1, Homo sapiens, UniProt P16220, residues 1-327, full length assumed)
# Chain of UniProt P16220 (whole entry, looked up): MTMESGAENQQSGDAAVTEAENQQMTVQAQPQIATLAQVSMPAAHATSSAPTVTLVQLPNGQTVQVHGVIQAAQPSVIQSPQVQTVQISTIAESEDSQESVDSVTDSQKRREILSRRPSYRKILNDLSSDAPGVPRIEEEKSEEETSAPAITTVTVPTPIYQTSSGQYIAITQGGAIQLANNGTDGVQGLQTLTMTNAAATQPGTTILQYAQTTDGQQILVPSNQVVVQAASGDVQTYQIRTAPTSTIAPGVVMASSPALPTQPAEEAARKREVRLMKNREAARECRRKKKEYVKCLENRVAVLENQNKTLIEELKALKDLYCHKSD
# Technique: protein-binding microarray
# Form: double-stranded DNA, one strand shown
# Matrix: in vitro
# Concentration: not given
# Setting: k-mer, scored over probes, only values ≥0.25
# Direction: higher = stronger binding
Sequence,E-score
ACTATGG,0.261
CATAACA,0.28
AATAACG,0.335
AGTGACG,0.462
ACGACAT,0.27
ACTGACG,0.307
ATATACA,0.284
ATGACAT,0.322

# Block 3
# Target: tungstate, free oxyanion
# Technique: microfluidic competitive inhibition
# Matrix: in vitro, cell-free expressed
# Concentration: not given
# Setting: derived from inhibition constants, unchanged parent 2230 nM
# Direction: lower = stronger binding
# Starting sequence: PafA, mature enzyme, eGFP fusion (Elizabethkingia meningoseptica, UniProt Q9KJX5); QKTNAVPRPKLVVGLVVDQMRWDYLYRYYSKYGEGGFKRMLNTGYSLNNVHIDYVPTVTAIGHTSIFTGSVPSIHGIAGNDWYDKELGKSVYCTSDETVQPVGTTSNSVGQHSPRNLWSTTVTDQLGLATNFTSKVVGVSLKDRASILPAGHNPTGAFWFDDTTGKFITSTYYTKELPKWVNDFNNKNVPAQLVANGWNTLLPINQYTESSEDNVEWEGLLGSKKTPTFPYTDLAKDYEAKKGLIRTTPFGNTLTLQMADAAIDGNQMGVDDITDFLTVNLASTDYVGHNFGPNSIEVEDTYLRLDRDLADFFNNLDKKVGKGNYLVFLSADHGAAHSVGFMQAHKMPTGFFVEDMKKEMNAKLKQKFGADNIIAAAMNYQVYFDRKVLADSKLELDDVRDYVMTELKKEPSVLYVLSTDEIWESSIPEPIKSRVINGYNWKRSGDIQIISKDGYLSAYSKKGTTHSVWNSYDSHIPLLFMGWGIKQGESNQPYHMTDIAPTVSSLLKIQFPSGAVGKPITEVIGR
Substitution,oxyanion analog dissociation constant
S457G,2.21 µM
Q257V,2.39 µM
V137G,1.25 µM
T464G,2.04 µM
D81G,3.37 µM
T349V,1.78 µM
A150G,2.66 µM
I66G,1.72 µM
N131V,2.05 µM
N42V,2.43 µM
A145V,489 µM
R39G,1.43 µM
I245V,2.08 µM
V399A,2.1 µM
A362V,2.66 µM
A458G,2.11 µM
T232V,2.48 µM
S223V,1.95 µM
S65G,3.06 µM
D96V,1.37 µM
P203V,1.98 µM
T232G,2.24 µM
T274G,1.88 µM
N48G,2.47 µM
S513G,1.72 µM

# Block 4
# Target: CCNE1, cyclin fold, Cln2 fusion (human)
# Technique: yeast growth competition, sequencing
# Matrix: yeast
# Setting: strong parent motif
# Baseline: not given
# Direction: higher = stronger binding
# Starting sequence: viral docking peptide; YKVKRRLVFGADD
Substitution,normalised enrichment score
L7T,-0.141
K4Y,1.56
K2C,5.96
A11Y,5.89
R5E,-0.0538
R6N,1.02
K4S,4.3
F9Q,0.293
L7A,-0.0361
D13A,4.67
K2M,5.64
K4C,5.71
K2R,5.97
F9W,2.6
V8C,5.74
K4A,3.86
V3W,2.57
